Measured values collected from several papers.
Compare with care: the assays were run in different laboratories. ± gives the spread as reported.

With `OC[C@H]1OC(O)[C@H](O)[C@@H](O)[C@@H]1O` (stereo partly shown) the osmolality was 18 mOsmol/kg (aqueous solution; 20 mM, together with: glucosamine).
`CC[N+]([O-])(CC)CCNC(=O)c1c(C)[nH]c(/C=C2\C(=O)Nc3ccc(F)cc32)c1C` — result for “serum concentration/dose ratio”: 0.006 (human, serum; 50 mg maintenance, median).
`C[C@@H]1CCO[C@H]2Cn3cc(C(=O)NCc4ccc(F)cc4F)c(=O)c(O)c3C(=O)N12` gave a drug concentration of 4600 ± 1100 ng/g (Tat- transgenic mouse, striatum; subcutaneous osmotic pump, dose not given, 5 d).
`CC(C)(C(=O)N1CCOc2c(C#N)cncc2C1)C(F)F`: “subjects with dizziness TEAE” 33.3% (human, both sexes; oral, 30 mg single dose).
For `C[C@@H](N)C1CCN(S(=O)(=O)c2cccc3cnccc23)CC1`, the tmax was 0.5 h (healthy volunteers, fasted, plasma; oral, 250 mg).
`O=C1CC[C@H](N2Cc3cc(N4CCN(CC5CCN(c6ccc([C@@H]7c8ccc(O)cc8CC[C@@H]7c7ccccc7)cc6)CC5)CC4)ccc3C2=O)C(=O)N1` — result for “scaled intrinsic clearance”: 39.1 mL/min/kg (cryopreserved SD rat hepatocytes; 1 µM).
Under “decreased appetite incidence”, `CNCc1ccc(-c2[nH]c3cc(F)cc4c3c2CCNC4=O)cc1` is recorded as 11.1% (patients; oral, 480 mg twice daily, all grades).
`N#CCC1CCN(c2nc(Nc3ccc(N4CCC(O)CC4)cc3)c3c(=O)[nH]ncc3n2)CC1` gave an AUC(0-24 h) of 2120 ng·h/mL (human, plasma; oral, 80 mg once daily, day 1).
`CCO[C@H]1CCN(Cc2c(OC)cc(C)c3[nH]ccc23)[C@H](c2ccc(C(=O)O)cc2)C1` has a total Tmax of 1.9 h (human mild hepatic impairment, plasma; oral, 200 mg single dose, median).
For `CCCOc1ccc([C@H]2CNC(=O)N2c2ccc3[nH]cnc3c2)cc1`, the CSF concentration was 12.6 ng/mL (human, elderly, fasted, cerebrospinal fluid; oral, 300 mg twice daily, capsule, 12 h after final dose, day 7, geometric mean).
`OC[C@H]1O[C@@H](c2ccc(Cl)c(Cc3ccc(O[C@H]4CCOC4)cc3)c2)[C@H](O)[C@@H](O)[C@@H]1O` — result for “change in AST”: 1 U/L (Japanese type 1 diabetes patients, blood; 10 mg, day 28; baseline: baseline).
The blood HDW of `CCc1cc(C(=O)NC)c2nccc(N3CCc4c(cc(Cn5ccnc5)cc4-c4cn(C)nc4C(F)(F)F)C3=O)c2c1` is reported as 22.8 ± 0.76 g/L (Sprague Dawley rats; oral, 100 mg/kg twice daily, 7 days).
`C[C@@H](N)c1cc(Cl)ccc1Cn1c(=S)[nH]c(=O)c2[nH]ccc21` — result for “adverse events causing discontinuation”: 0% (human matched controls; oral, 2.5 mg single dose).
`COc1ccc([C@@H](O)c2cc(-c3ncnc4cc(N5CCOCC5)ccc34)c(F)cc2Cl)nn1`: “drug-related lymphopenia incidence” 33% (locally advanced rectal cancer patients; 150 mg, together with: capecitabine and radiotherapy).
With `COC(=O)c1ccc(NC(=O)CSc2nnc(-c3ccc(NC(C)=O)cc3)n2C)cc1` the logP was 2.21 (octanol/buffer; pH 11, known kinase inactives set).
`CCOc1c([C@H](C)n2nc(C)c3c(N)ncnc32)cc(Cl)c(F)c1[C@@H]1CNC(=O)C1` — result for “observations QTcF >480 ≤500 ms”: 0% (ECG; previously treated B-cell malignancy patients; oral, 10 mg once daily, baseline QTcF ≤450 ms).
`CC(C)c1nc(N(C)S(C)(=O)=O)nc(-c2ccc(F)cc2)c1/C=C/[C@@H](O)C[C@@H](O)CC(=O)O` — result for “increase in AUCinf”: 170% (healthy human volunteers, plasma; oral, dose not given, BCRP probe substrate, together with: multiple-dose momelotinib; baseline: compound alone).
For `Cn1cnc2c(F)c(Nc3ccc(Br)cc3Cl)c(C(=O)NOCCO)cc21`, “zero-order absorption duration” read 4.73 h (population PK model; human, plasma; oral, sequential zero-first-order absorption, fed).
Under “participants with serious TEAEs”, `C[C@H]1CN(C(=O)CC#N)[C@]12CCN(c1ncnc3[nH]ccc13)C2` is recorded as 0% (human; oral, 1.5 mg single dose).
`CCn1cc(C)c2c([C@H](O)c3ccc(C(F)(F)F)nc3)n(C)nc2c1=O` gave a CLint,u of 75.9 mL/min/kg (rat Sprague-Dawley male, blood; intravenous, 1 mg/kg).
`CNC(=O)c1ccc(-c2cnc3ncc(Cc4ccc5ncccc5c4)n3n2)cc1F`: “patients with adverse event” 26% (refers to: Fatigue, all grades; cancer patients; oral, dose not given, dose escalation, any causality).
Under “patients, drug-related skin TEAEs”, `CC(C)C[C@H](NC(=O)[C@@H](Cc1c[nH]c2ccccc12)NC(=O)[C@H](Cc1ccc(O)cc1)NC(=O)[C@H](CO)NC(=O)[C@H](Cc1c[nH]c2ccccc12)NC(=O)[C@H](Cc1c[nH]cn1)NC(=O)[C@@H]1CCC(=O)N1)C(=O)N[C@@H](CCCNC(=N)N)C(=O)N1CCC[C@H]1C(=O)NCC(N)=O` is recorded as 0% (Chinese CPP children, girls; intramuscular, 22.5 mg, 12 months, day 1, month 6).
`CN(CCC(=O)O)C(=O)c1ccc2c(c1)CC[C@@H]1[C@@H]2CC[C@]2(C)C(c3cncc(F)c3)=CC[C@@H]12` has a Tmax of 2.97 h (postmenopausal women, plasma; 30 mg once daily multiple dose, day 14, median).
The half-life of `CCn1cc(C(=O)N2CCOCC2)c(=O)c2cc(NC3Cc4ccccc4C3)cnc21` is reported as 4.33 h (human, fasted, plasma; oral, 1200 mg single dose, tablet, arithmetic mean).
Under “subjects with elevated ALT TEAE”, `O=C(O)CCC(=O)O.[2H]C([2H])([2H])Oc1cc(C)c2[nH]ccc2c1CN1CC[C@@H](C2CC2)C[C@H]1c1ccc(C(=O)O)cc1` is recorded as 0% (multiple ascending dose; healthy Chinese subjects; 50 mg twice daily).
`CO[C@H]1C[C@@H]2CC[C@@H](C)[C@@](O)(O2)C(=O)C(=O)N2CCCC[C@H]2C(=O)O[C@H]([C@H](C)C[C@@H]2CC[C@@H](O)[C@H](OC)C2)CC(=O)[C@H](C)/C=C(\C)[C@@H](O)[C@@H](OC)C(=O)[C@H](C)C[C@H](C)/C=C/C=C/C=C/1C` has a rectal temperature of 36.8 ± 0.3 °C (healthy adult horses; oral, 0.06 mg/kg, 48 h).
`O=C(Nc1nc2cccc(-c3ccc(CN4CCS(=O)(=O)CC4)cc3)n2n1)C1CC1`: “treatment-emergent adverse events” 5.9% (refers to: cardiac disorders; human rheumatoid arthritis patients; oral, 30 mg once daily, 4 weeks, regardless of relatedness).
`COc1cc2nccc(Oc3ccc(NC(=O)c4cc5c(n(-c6ccccc6)c4=O)CCCC5=O)nc3)c2cc1OC` — result for “grade ≥3 Hypophosphatemia patients”: 0% (relapsed or refractory AML; oral, 10 mg once daily).
`CC(=O)c1ccc([C@H]2C[C@@]3(C)[C@@H](CC[C@@]3(O)C(F)(F)C(F)(F)F)[C@@H]3CCC4=CC(=O)CCC4=C32)cc1` — result for serum concentration: “not detected” (human, serum pool; oral, 200 mg, day 1, 48 h).
`Cc1ccc(Sc2ccccc2N2CCNCC2)c(C)c1` — result for “participants with TEAE”: 0% (refers to: hot flush; healthy adult men; oral, 10 mg daily, 12 days).
`Cc1c(OCC(F)(F)F)ccnc1C[S+]([O-])c1nc2ccccc2[nH]1` (stereo not shown) has a dose-normalised Cmax of 2.3 µg/mL per mg/kg (human; oral, median).
`Cc1c(-c2ccc(N3CCc4cccc(C(=O)Nc5nc6ccccc6s5)c4C3)nc2C(=O)O)cnn1CC12CC3(C)CC(C)(C1)CC(OCCNCC[C@H](O)CO)(C3)C2`: “mean arterial pressure change” -26% (beagle dog, male, anaesthetised; intravenous infusion, 0.3 mg/kg/min, 60 min; baseline: vehicle).
`Cn1nc([N+](=O)[O-])nc1Oc1ccccc1C(=O)N1CCOCC1` gave a logP of 0.45 (octanol/buffer; pH 11, known kinase inactives set).
Under “urinary calcium excretion change”, `Cc1ccc([C@@H]2O[C@H](CO)[C@@H](O)[C@H](O)[C@H]2O)cc1Cc1ccc(-c2ccc(F)cc2)s1` is recorded as -30.8 mg (Japanese type 2 diabetes patients; 200 mg, day 15, 24 h urine collection; baseline: baseline).
Under “subjects with TEAE”, `CC(C)n1c(Nc2cccnc2)nc2cnc(Nc3ccc(N4CCN(C)CC4)cc3)nc21` is recorded as 11.9% (refers to: oral ulcers; healthy human, male; concentration not given, CTCAE grade 1-3).
Under “nucleoside remaining fraction”, `Nc1nc2c(nc([N+](=O)[O-])n2[C@@H]2O[C@H](CO)[C@@H](O)[C@H]2O)c(=O)[nH]1` is recorded as 0.258 (depurination, RP-HPLC; citrate-phosphate buffer 0.5 mM; 2585 min, pH 7, 37 °C).
`Cc1cc(NC2CCN(C(=O)OC3CCN(C(=O)/C=C/CN(C)C)C3)CC2)n2ncc(C(C)C)c2n1` (stereo not shown) — result for “patients with TEAE”: 0% (CTCAE v4.0, refers to: Dizziness; patients with advanced solid tumours; oral, dose not given, TIW, grade 3 or higher).
With `O=C(COc1ccc(Cl)cc1)NC12CC(c3nnc([C@H]4C[C@@H](OC(F)(F)F)C4)o3)(C1)C2` the steady-state Ctrough was 5.44 µM (healthy human both sexes, plasma; oral, 145 mg once daily, day 14, mean).
With `OCc1nc2ccc(NCc3ccc(C(F)(F)F)cc3)cc2[nH]1` the Vss was 3.96 ± 0.5 L/kg (Balb/c mice, male, plasma; intravenous, 1 mg/kg).
`Cc1cc(NC(=O)c2cccc(NC(=O)/C=C/CN(C)C)c2)ccc1Nc1nccc(-c2cccnc2)n1` gave a compound remaining of 52.4% (metabolic stability; Wistar rat, male, primary hepatocytes; 1 µM, 120 min).
`O=C(COc1ccccc1[N+](=O)[O-])Nc1ccccc1N1CCOCC1` gave a logP of 3.22 (octanol/buffer; pH 11, known kinase inactives set).
`COc1ncc(-c2nc3c(n2C(C)C)[C@H](c2ccc(Cl)cc2)N(c2cc(Cl)cn(C)c2=O)C3=O)c(OC)n1` gave a median half-life of 23.1 h (human patients, plasma; oral, 200 mg, high-dose arm, cycle 2 day 1).
The logP of `NC[C@H](NC(=O)c1ccc(C#CC#Cc2ccccc2)cc1)C(=O)NO` is reported as 2.16 (octanol/buffer; pH 11).
`Cc1ccc(NC(=O)c2ccc(CN3CCN(C)CC3)cc2)cc1Nc1nc(-c2cccnc2)cs1`: “max unbound liver inlet concentration” 0.26 to 1.5 µM (human; oral, 600 mg daily).
For `CC(C(=O)NCC(=O)NCC(CNC(=O)CNC(=O)C(C)N1CCN(CC(=O)[O-])CCN(CC(=O)[O-])CCN(CC(=O)[O-])CC1)(CNC(=O)CNC(=O)C(C)N1CCN(CC(=O)[O-])CCN(CC(=O)[O-])CCN(CC(=O)[O-])CC1)CNC(=O)CNC(=O)C(C)N1CCN(CC(=O)[O-])CCN(CC(=O)[O-])CCN(CC(=O)[O-])CC1)N1CCN(CC(=O)[O-])CCN(CC(=O)[O-])CCN(CC(=O)[O-])CC1.[Gd+3].[Gd+3].[Gd+3].[Gd+3]` (stereo not shown), “cumulative urinary excretion” read 100% (ICP-MS; cynomolgus monkey; 58 days; baseline: dose).
Under “Diarrhoea dose reduction/interruption”, `CNC(=O)c1ccc(-c2cnc3ncc(Cc4ccc5ncccc5c4)n3n2)cc1F` is recorded as 3% (Japanese patients; oral, 400 mg, any grade).
`CC1(C)CCC(CN2CCN(c3ccc(C(=O)NS(=O)(=O)c4ccc(NCC5CCOCC5)c([N+](=O)[O-])c4)c(Oc4cnc5[nH]ccc5c4)c3)CC2)=C(c2ccc(Cl)cc2)C1` — result for “dose-normalised C6 (C6/D)”: 0.49 (UPLC-MS/MS; responders; oral, dose not given, 6 h, normalised to dose per body weight).
For `NC1(C(=O)N[C@@H](CCO)c2ccc(Cl)cc2)CCN(c2nc[nH]c3nccc2-3)CC1`, “incidence of weight decreased” read 0% (metastatic CRPC patients; 480 mg b.i.d., grade 3 to 4, treatment-related, together with: enzalutamide 160 mg daily).
With `C=CC(=O)N1CCC(Oc2cc3c(Nc4ccc(Cl)c(Cl)c4F)ncnc3cc2OC)CC1` the CLz/F ratio was 0.43 fold (Sprague-Dawley rat male, plasma; oral, 2 mg/kg, together with: schisandrin A 20 mg/kg daily 1 weeks pretreatment; baseline: no pretreatment).
With `COC(=O)Nc1cc(C(=O)Nc2ccccc2)cc2ccc(C(=N)N)cc12` the logP was 2.11 (octanol/buffer; pH 11, urokinase ligand set).
`O=C(O)CCc1cccc(O)c1O` gave a CSF concentration of 15.9 nM (human, cerebrospinal fluid; concentration not given, mean).
With `CCN1/C(=C/C(C)=O)Sc2ccc(F)cc21` the heart rate was 131 ± 11 beats/min (cynomolgus monkey; oral, 100 mg/kg, 0.5 h post-dose).
The remaining compound of `Cc1cccc(CNC(=O)c2cn(CCNC(=O)c3ccccc3Sc3c([N+](=O)[O-])ncn3C)c3cc4c(cc3c2=O)OCO4)n1` is reported as 87.9% (cynomolgus monkey, whole blood; 1 µM, 1.5 h).
For `FC(F)(F)c1ccc(CNc2ccc(Cc3c[nH]c4ncc(Cl)cc34)cn2)cn1`, “adverse event incidence” read 13% (refers to: Pruritus; patients with advanced solid tumours; oral, dose not given, all grades, possibly related to drug).
`CCn1c(SCC(=O)Nc2ccccc2OC)nnc1-c1c[nH]c2ccccc12` gave a logP of 3.33 (octanol/buffer; pH 11, known kinase inactives set).
`CCCCC/C=C\C/C=C\CCCCCCCCC(CCCCCCCC/C=C\C/C=C\CCCCC)OC(=O)CCCN(C)C` gave a zeta potential of 0.55 mV (pH 7.5, formulated).
The logP of `NC[C@H](NC(=O)c1ccc(-c2ccc(Br)cc2)cc1)C(=O)NO` is reported as 0.95 (octanol/buffer; pH 11).
`N#Cc1ccc2c(c1)[C@H]1CCCN(C(=O)c3ccc4[nH]cnc4c3)[C@H]1C2`: “cortisol level change” -203 nmol/L (human; 160 mg, day 7; baseline: baseline).

For quick reference, copied from above:
`CCn1c(SCC(=O)Nc2ccccc2OC)nnc1-c1c[nH]c2ccccc12` gave a logP of 3.33 (octanol/buffer; pH 11, known kinase inactives set).
`CCCCC/C=C\C/C=C\CCCCCCCCC(CCCCCCCC/C=C\C/C=C\CCCCC)OC(=O)CCCN(C)C` gave a zeta potential of 0.55 mV (pH 7.5, formulated).
The logP of `NC[C@H](NC(=O)c1ccc(-c2ccc(Br)cc2)cc1)C(=O)NO` is reported as 0.95 (octanol/buffer; pH 11).
`N#Cc1ccc2c(c1)[C@H]1CCCN(C(=O)c3ccc4[nH]cnc4c3)[C@H]1C2`: “cortisol level change” -203 nmol/L (human; 160 mg, day 7; baseline: baseline).
